Measurements collected from several papers.
Compare with care: the assays were run in different laboratories. ± marks the error that the study gave.
Gonadotropin-releasing hormone receptor: Gonadotropin-releasing hormone receptor (Rattus norvegicus, UniProt P30969)
Sequence of UniProt P30969 (whole entry, looked up): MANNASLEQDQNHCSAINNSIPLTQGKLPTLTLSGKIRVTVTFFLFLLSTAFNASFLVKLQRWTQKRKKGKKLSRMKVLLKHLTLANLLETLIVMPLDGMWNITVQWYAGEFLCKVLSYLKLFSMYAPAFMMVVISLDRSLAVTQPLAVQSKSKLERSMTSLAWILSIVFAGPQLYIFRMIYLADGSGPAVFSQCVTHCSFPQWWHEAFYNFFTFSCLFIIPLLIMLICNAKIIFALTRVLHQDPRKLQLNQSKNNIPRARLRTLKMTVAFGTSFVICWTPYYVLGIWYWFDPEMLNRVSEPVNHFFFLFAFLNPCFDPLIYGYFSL
PTH1R: Parathyroid hormone/parathyroid hormone-related peptide receptor (PTH1R, Homo sapiens, UniProt Q03431)
Sequence of UniProt Q03431 (whole entry, looked up): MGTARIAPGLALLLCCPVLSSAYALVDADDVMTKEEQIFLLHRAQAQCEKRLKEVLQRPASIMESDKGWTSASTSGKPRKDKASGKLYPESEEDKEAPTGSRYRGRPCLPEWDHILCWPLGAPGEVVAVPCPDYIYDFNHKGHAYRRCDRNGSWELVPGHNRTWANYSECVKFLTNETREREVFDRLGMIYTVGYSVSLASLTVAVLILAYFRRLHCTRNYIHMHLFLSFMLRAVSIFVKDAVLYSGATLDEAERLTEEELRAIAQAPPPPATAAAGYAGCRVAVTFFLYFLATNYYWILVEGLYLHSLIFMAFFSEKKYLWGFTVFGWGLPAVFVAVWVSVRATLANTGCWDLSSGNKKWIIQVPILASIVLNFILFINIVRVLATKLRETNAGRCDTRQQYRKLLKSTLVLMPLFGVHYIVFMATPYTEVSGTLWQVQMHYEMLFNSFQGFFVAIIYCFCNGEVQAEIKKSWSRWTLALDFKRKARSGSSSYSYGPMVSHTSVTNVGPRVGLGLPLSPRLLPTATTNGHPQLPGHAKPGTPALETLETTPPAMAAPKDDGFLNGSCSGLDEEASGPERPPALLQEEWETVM
FFAR3: Free fatty acid receptor 3 (FFAR3, Homo sapiens, UniProt O14843)
Sequence of UniProt O14843 (whole entry, looked up): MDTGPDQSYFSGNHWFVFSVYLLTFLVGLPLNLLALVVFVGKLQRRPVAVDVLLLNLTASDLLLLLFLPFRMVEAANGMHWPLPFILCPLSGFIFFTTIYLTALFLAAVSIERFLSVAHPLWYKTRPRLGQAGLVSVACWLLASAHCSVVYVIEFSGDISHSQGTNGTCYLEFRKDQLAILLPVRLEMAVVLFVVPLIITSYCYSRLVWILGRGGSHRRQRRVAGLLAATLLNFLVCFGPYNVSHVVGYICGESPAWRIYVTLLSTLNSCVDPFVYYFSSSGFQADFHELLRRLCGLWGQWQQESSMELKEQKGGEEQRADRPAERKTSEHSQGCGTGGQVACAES
NR1H2 ligand-binding domain: Oxysterols receptor LXR-beta, ligand-binding domain (NR1H2, Homo sapiens, UniProt P55055)
Sequence of UniProt P55055 (whole entry, looked up): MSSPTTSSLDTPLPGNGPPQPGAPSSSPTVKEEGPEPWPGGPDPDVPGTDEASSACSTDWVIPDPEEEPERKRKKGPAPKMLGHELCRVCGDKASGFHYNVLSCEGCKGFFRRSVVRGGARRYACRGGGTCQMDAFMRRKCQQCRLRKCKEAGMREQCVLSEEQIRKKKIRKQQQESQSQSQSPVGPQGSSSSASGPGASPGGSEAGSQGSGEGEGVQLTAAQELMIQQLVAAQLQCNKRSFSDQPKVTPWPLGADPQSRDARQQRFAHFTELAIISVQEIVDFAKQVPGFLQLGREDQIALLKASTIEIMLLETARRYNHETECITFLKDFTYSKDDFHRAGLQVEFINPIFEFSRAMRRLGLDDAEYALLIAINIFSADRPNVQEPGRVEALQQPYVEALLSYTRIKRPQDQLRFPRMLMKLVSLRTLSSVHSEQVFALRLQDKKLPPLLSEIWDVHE
Sequence of UniProt P43119 (whole entry, looked up): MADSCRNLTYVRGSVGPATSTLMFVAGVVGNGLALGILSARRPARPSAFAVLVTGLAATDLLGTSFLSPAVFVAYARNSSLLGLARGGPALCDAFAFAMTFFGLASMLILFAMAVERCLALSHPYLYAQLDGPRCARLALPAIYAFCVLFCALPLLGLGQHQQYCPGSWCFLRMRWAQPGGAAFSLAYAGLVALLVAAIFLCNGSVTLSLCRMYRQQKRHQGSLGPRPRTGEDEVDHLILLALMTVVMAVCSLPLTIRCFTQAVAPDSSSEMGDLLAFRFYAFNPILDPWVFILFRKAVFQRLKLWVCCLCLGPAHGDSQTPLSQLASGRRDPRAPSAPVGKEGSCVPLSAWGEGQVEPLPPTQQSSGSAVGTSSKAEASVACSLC
Sequence of UniProt Q60755 (whole entry, looked up): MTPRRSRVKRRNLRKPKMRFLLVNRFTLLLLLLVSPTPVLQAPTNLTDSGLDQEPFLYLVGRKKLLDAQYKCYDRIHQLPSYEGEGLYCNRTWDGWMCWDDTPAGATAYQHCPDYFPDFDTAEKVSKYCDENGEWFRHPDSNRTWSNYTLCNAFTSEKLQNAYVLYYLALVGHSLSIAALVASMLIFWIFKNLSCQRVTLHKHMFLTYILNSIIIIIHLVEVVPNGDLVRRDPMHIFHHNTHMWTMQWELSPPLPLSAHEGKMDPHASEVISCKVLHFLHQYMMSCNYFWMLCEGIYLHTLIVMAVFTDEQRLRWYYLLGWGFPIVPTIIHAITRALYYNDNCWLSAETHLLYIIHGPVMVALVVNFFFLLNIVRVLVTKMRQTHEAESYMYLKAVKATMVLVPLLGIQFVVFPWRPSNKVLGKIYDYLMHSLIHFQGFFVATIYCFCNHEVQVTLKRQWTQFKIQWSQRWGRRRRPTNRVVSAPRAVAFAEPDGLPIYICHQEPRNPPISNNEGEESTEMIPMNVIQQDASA
Sequence of UniProt Q64663 (whole entry, unmodified, looked up): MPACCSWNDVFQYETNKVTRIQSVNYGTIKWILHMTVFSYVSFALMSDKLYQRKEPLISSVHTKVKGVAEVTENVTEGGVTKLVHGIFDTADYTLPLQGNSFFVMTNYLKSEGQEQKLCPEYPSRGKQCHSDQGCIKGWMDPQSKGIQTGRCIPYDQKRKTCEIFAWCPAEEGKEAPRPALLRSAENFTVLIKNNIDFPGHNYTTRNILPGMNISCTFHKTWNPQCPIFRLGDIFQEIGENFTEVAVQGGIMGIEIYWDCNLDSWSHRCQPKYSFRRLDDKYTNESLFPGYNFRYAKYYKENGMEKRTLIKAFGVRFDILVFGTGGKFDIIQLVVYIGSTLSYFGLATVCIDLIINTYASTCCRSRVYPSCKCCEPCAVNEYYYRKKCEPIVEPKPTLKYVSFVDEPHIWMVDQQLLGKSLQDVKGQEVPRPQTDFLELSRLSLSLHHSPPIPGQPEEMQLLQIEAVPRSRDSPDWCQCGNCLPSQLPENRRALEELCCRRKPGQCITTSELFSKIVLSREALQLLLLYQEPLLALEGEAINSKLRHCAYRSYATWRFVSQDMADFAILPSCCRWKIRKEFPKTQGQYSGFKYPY
Sequence of UniProt Q6W5P4 (whole entry, looked up): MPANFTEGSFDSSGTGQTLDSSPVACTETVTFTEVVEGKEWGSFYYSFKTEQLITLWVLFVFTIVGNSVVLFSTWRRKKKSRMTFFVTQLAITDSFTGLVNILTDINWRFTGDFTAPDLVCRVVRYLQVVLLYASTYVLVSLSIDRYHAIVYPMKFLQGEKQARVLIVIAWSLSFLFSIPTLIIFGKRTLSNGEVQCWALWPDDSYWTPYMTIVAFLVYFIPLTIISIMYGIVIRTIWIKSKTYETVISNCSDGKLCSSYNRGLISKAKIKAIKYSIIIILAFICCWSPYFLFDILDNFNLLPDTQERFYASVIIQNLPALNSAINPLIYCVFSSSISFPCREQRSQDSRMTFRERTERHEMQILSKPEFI
Sequence of UniProt P51812 (whole entry, looked up): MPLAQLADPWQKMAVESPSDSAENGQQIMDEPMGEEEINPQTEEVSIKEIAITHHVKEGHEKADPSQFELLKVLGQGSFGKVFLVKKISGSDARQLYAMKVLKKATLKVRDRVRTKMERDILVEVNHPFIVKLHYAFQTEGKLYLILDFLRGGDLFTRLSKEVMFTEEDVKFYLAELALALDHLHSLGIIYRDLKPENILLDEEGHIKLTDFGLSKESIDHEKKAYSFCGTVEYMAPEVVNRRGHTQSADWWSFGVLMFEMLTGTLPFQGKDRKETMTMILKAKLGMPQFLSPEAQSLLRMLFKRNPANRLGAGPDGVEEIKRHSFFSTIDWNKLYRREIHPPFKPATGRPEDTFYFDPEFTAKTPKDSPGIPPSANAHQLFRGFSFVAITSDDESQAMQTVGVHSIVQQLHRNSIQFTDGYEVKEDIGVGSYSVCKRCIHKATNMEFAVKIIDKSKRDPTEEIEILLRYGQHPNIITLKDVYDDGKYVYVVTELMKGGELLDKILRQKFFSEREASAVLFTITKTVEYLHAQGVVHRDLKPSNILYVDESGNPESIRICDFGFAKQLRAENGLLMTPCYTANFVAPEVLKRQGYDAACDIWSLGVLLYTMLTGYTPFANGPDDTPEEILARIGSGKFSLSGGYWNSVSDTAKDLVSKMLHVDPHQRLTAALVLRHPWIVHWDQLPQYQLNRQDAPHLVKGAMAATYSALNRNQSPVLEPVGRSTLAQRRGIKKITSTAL
Sequence of UniProt Q9WTJ5 (whole entry, looked up): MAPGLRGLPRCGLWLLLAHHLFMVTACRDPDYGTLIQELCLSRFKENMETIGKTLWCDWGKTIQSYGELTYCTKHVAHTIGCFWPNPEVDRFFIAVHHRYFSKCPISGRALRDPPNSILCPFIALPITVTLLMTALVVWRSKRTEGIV
Sequence of UniProt P50391 (whole entry, looked up): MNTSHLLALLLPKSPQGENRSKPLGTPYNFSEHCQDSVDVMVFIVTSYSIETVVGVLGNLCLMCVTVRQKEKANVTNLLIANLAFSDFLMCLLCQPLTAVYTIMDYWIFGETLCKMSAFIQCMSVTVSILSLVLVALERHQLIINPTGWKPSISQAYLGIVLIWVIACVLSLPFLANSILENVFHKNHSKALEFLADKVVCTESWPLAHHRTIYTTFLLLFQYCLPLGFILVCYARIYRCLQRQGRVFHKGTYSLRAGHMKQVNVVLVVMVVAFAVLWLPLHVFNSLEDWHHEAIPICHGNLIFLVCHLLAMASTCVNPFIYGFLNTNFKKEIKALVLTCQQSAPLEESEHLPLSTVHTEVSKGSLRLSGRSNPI

| Molecule | target | assay | system | conditions | EC50 [µM] |
| --- | --- | --- | --- | --- | --- |
| N=C(N)NCCC[C@H](NC(=O)[C@H](Cc1ccccc1)NC(=O)[C@@H](N)CO)C(=O)N[C@@H](CC(N)=O)C(=O)NCC(N)=O | NPSR1 (Homo sapiens, UniProt Q6W5P4) | cAMP, agonist, TR-FRET |  |  | > 10 |
| CCn1cnc(C[C@H](NC(=O)c2cnccn2)C(=O)N2CCC[C@H]2C(N)=O)c1 | Thyrotropin-releasing hormone receptor (Mus musculus, UniProt P21761) | calcium signal, agonist, fluorescence |  |  | 10.5 |
| N#C/C(=C\c1cccc(-c2ccncc2)c1)C(N)=O | RPS6KA3 (Homo sapiens, UniProt P51812) | inhibitor, Western blot | transfected COS-7 | added: PMA | ~20 |
| CCOc1ccccc1-c1nnc2n1N=C(c1ccc(NC3CCCC3)cc1)CS2 | CXCR4 (Homo sapiens, UniProt P61073) | β-arrestin recruitment, agonist |  |  | 1.4 |
| CC(C)C[C@H](NC(=O)[C@H](CCCNC(=N)N)NC(=O)[C@H](Cc1ccc(O)cc1)NC(=O)CCCCCCC(=O)N[C@@H](Cc1ccc(O)cc1)C(=O)N[C@@H](CCCNC(=N)N)C(=O)N[C@@H](CC(C)C)C(=O)NN(CCCNC(=N)N)C(=O)N[C@@H](Cc1ccc(O)cc1)C(N)=O)C(=O)NN(CCCNC(=N)N)C(=O)N[C@@H](Cc1ccc(O)cc1)C(N)=O | NPY4R (Homo sapiens, UniProt P50391) | calcium signal, agonist |  |  | 0.542 |
| CC(C)C[C@H](NC(=O)[C@@H](Cc1c[nH]c2ccccc12)NC(=O)[C@H](Cc1ccc(O)cc1)NC(=O)[C@H](CO)NC(=O)[C@H](Cc1c[nH]c2ccccc12)NC(=O)[C@H](Cc1c[nH]cn1)NC(=O)[C@@H]1CCC(=O)N1)C(=O)N[C@@H](CCCNC(=N)N)C(=O)N1CCC[C@H]1C(=O)NCC(N)=O | Gonadotropin-releasing hormone receptor | inositol phosphate accumulation, agonist | WPE-1-NB26-3 expressing Gonadotropin-releasing hormone receptor | 60 min, 37 °C, added: 10 mM LiCl | 0.0002 ± 3e-05 |
| CC[C@H](C)[C@H](NC(=O)[C@H](CCC(=O)O)NC(=O)[C@H](CO)NC(=O)[C@@H](NC(=O)[C@@H](N)CO)C(C)C)C(=O)N[C@@H](CCC(N)=O)C(=O)N[C@@H](CC(C)C)C(=O)N[C@@H](CCSC)C(=O)N[C@@H](Cc1c[nH]cn1)C(=O)N[C@@H](CC(N)=O)C(=O)N[C@@H](CC(C)C)C(=O)NCC(=O)N[C@@H](CCCCN)C(=O)N[C@@H](Cc1c[nH]cn1)C(=O)N[C@@H](CC(C)C)C(=O)N[C@@H](CC(N)=O)C(=O)N[C@@H](CO)C(=O)N[C@@H](CCSC)C(=O)N[C@@H](CCC(=O)O)C(=O)N[C@@H](CCCNC(=N)N)C(=O)N[C@H](C(=O)N[C@@H](CCC(=O)O)C(=O)N[C@@H](Cc1c[nH]c2ccccc12)C(=O)N[C@@H](CC(C)C)C(=O)N[C@@H](CS)C(=O)N[C@@H](CCCCN)C(=O)N[C@@H](CCCCN)C(=O)N[C@@H](CC(C)C)C(=O)N[C@@H](CCC(N)=O)C(=O)N[C@@H](CC(=O)O)C(=O)N[C@H](C(=O)N[C@@H](Cc1c[nH]cn1)C(=O)N[C@@H](CC(N)=O)C(=O)N[C@@H](Cc1ccccc1)C(=O)O)C(C)C)C(C)C | PTH1R | cAMP production, agonist, GloSensor luminescence | SGS-72 | 10 to 15 min | 0.00027 ± 2e-05 |
| CCCCC(=O)O | FFAR3 | agonist |  |  | 28.8 |
| CN(C(=O)c1cccs1)c1ccc(C(O)(C(F)(F)F)C(F)(F)F)cc1 | NR1H2 ligand-binding domain | agonist |  | concentration not given | 0.34 ± 0.02 |
| NC(=O)CNC(=O)[C@@H]1CCCN1C(=O)[C@H](Cc1ccc(O)cc1)NC(=O)[C@H](Cc1c[nH]c2ccccc12)NC(=O)[C@@H](Cc1c[nH]c2ccccc12)NC(=O)[C@H](Cc1c[nH]cn1)NC(=O)[C@H](CO)NC(=O)[C@H](Cc1c[nH]c2ccccc12)NC(=O)[C@H](Cc1c[nH]cn1)NC(=O)[C@@H]1CCC(=O)N1 | Gonadotropin-releasing hormone receptor | inositol phosphate accumulation, agonist | WPE-1-NB26-3 expressing Gonadotropin-releasing hormone receptor | 60 min, 37 °C, added: 10 mM LiCl | 0.0039 ± 0.0005 |
| O=C(O)/C=C/c1cccc(NC(=O)c2cc(-c3ccc(F)cc3)ccc2F)c1 | PTGIR (Homo sapiens, UniProt P43119) | calcium signal, agonist, fluorescence |  |  | > 10 |
| Nc1ncnc2c1ncn2C1OC(COP(=O)(O)OP(=O)(O)OCC2OC(O)C(O)C2O)C(O)C1O (centres unmarked) | TRPM2 (Nematostella vectensis, UniProt A7T1N0) | channel activation, activator, inside-out patch clamp |  | global fit with ε-analogue, added: 125 µM Ca2+ | 1.6 ± 0.2 |
| BzATP | P2X purinoceptor 7 (P2rx7, Rattus norvegicus, UniProt Q64663, Q143A) | ion current, agonist, two-electrode voltage clamp | Xenopus laevis oocytes | Q143A mutant | 6 ± 2 |
| C=C1CC[C@H](OCCCNC(=O)CCOCCOCCOCCOCCOCCOCCOCCOCCOCCOCCOCCOCCOCCOCCOCCOCCOCCOCCOCCOCCOCCOCCOCCOCCOCCOCCOCCOCCOCCOCCOCCOCCOCCOCCOCCOCCNC(=O)CCN2C(=O)CC(SC[C@H](NC(=O)[C@H](Cc3ccccc3)NC(=O)[C@H](CC(N)=O)NC(=O)[C@H](Cc3c[nH]cn3)NC(=O)[C@@H](NC(=O)[C@H](CC(=O)O)NC(=O)[C@H](CCC(N)=O)NC(=O)[C@H](CC(C)C)NC(=O)[C@H](CCCCN)NC(=O)[C@H](CCCCN)NC(=O)[C@H](CCCNC(=N)N)NC(=O)[C@H](CC(C)C)NC(=O)[C@H](Cc3c[nH]c4ccccc34)NC(=O)[C@H](CCC(=O)O)NC(=O)[C@@H](NC(=O)[C@H](CCCNC(=N)N)NC(=O)[C@H](CCC(=O)O)NC(=O)[C@H](CCSC)NC(=O)[C@H](CO)NC(=O)[C@H](CC(N)=O)NC(=O)[C@H](CC(C)C)NC(=O)[C@H](Cc3c[nH]cn3)NC(=O)[C@H](CCCCN)NC(=O)CNC(=O)[C@H](CC(C)C)NC(=O)[C@H](CC(N)=O)NC(=O)[C@H](Cc3c[nH]cn3)NC(=O)[C@H](CCSC)NC(=O)[C@H](CC(C)C)NC(=O)[C@H](CCC(N)=O)NC(=O)[C@@H](NC(=O)[C@H](CCC(=O)O)NC(=O)[C@H](CO)NC(=O)[C@@H](NC(=O)[C@@H](N)CO)C(C)C)[C@@H](C)CC)C(C)C)C(C)C)C(N)=O)C2=O)C/C1=C/C=C1\CCC[C@]2(C)[C@@H]([C@H](C)CCCC(C)(C)O)CC[C@@H]12 (some centres unmarked) | PTH1R | calcium signal, agonist, fluorescence |  |  | 0.0273 |
| CC(=O)O | FFAR3 | agonist |  |  | 1740 |
| CN(C(=O)c1ccccc1Cl)c1ccc(C(O)(C(F)(F)F)C(F)(F)F)cc1 | NR1H2 ligand-binding domain | agonist |  | concentration not given | 1.41 ± 0.02 |
| CC[C@H](C)[C@H](NC(=O)[C@@H]1CCCN1C(=O)CNC(=O)[C@H](Cc1ccccc1)NC(=O)[C@H](CC(N)=O)NC(=O)[C@H](CC(N)=O)NC(=O)[C@H](CO)NC(=O)[C@H](CO)NC(=O)[C@H](Cc1c[nH]cn1)NC(=O)[C@@H](NC(=O)[C@H](CC(C)C)NC(=O)[C@H](Cc1ccccc1)NC(=O)[C@H](CC(N)=O)NC(=O)[C@H](C)NC(=O)[C@H](CC(C)C)NC(=O)[C@H](CCCNC(=N)N)NC(=O)[C@H](CCC(N)=O)NC(=O)[C@@H](NC(=O)[C@H](C)NC(=O)[C@@H]1CSSC[C@H](NC(=O)[C@@H](N)CCCCN)C(=O)N[C@@H](CC(N)=O)C(=O)N[C@@H]([C@@H](C)O)C(=O)N[C@@H](C)C(=O)N[C@@H]([C@@H](C)O)C(=O)N1)[C@@H](C)O)C(C)C)C(=O)N[C@@H](CC(C)C)C(=O)N1CCC[C@H]1C(=O)N1CCC[C@H]1C(=O)N[C@H](C(=O)N[C@@H](CC(N)=O)C(=O)N[C@H](C(=O)NCC(=O)N[C@@H](CO)C(=O)N[C@@H](CC(N)=O)C(=O)N[C@H](C(=O)N[C@@H](Cc1ccc(O)cc1)C(N)=O)[C@@H](C)O)C(C)C)[C@@H](C)O | Calcr/Ramp1 (Mus musculus, UniProt Q60755+Q9WTJ5) | cAMP production, agonist | COS-7, transfected | 15 min, 37 °C, added: IBMX 1 mM | 0.000562 |

For quick reference, copied from above:
| Molecule | target | assay | system | conditions | EC50 [µM] |
| --- | --- | --- | --- | --- | --- |
| CC(=O)O | FFAR3 | agonist |  |  | 1740 |
| NC(=O)CNC(=O)[C@@H]1CCCN1C(=O)[C@H](Cc1ccc(O)cc1)NC(=O)[C@H](Cc1c[nH]c2ccccc12)NC(=O)[C@@H](Cc1c[nH]c2ccccc12)NC(=O)[C@H](Cc1c[nH]cn1)NC(=O)[C@H](CO)NC(=O)[C@H](Cc1c[nH]c2ccccc12)NC(=O)[C@H](Cc1c[nH]cn1)NC(=O)[C@@H]1CCC(=O)N1 | Gonadotropin-releasing hormone receptor | inositol phosphate accumulation, agonist | WPE-1-NB26-3 expressing Gonadotropin-releasing hormone receptor | 60 min, 37 °C, added: 10 mM LiCl | 0.0039 ± 0.0005 |
